Measurements collected from several papers.
Compare with care: the assays were run in different laboratories. Several values in a cell are separate wells, animals, samples, runs or records. ± marks the error that the study gave.

SMILES	cell line	test	conditions	IC50
O=C(CSc1nnc(-c2n[nH]c(=O)c3ccccc23)o1)Nc1ccc(Cl)cc1	WI-38	cell growth or viability, MTT	48 h	45.7 µM
Nc1ccc(/C=C/C(=O)N2CCc3c(oc4c(-c5ccc(F)cc5)cc(-c5ccc(C(=O)N6CC(C(F)F)C6)nn5)cc34)C2)cn1	MIA PaCa-2	cell growth or viability, CCK-8	72 h	0.39 to 1.08 µM
Cc1cc(-c2cccc(N3CCN(c4ccc(NS(=O)(=O)c5ccc(N[C@H](CCN(C)C)CSc6ccccc6)c([N+](=O)[O-])c5)cc4)CC3)c2)c(-c2ccc(Cl)cc2)n1C	H146, H1417, H1963	cell growth		> 5 µM
CCCCCCCC(=O)N[C@H](C(=O)N[C@@H](CCC(N)=O)C(=O)N[C@H](C(=O)N[C@H](CCC(N)=O)C(=O)N[C@H](C(=O)N[C@H](C=O)Cc1ccccc1)C(C)C)[C@@H](C)CC)[C@@H](C)CC	FR4	cell growth		35 µM and ~30 µM
O=c1cc(-c2ccccc2)oc2cc(O)cc(O)c12	HL-60	cell growth or viability, ATP luminescence	24 h	328 µM
CCCCCCNC(=O)n1cc(F)c(=O)[nH]c1=O	NIH 3T3	cell viability, MTT	concentration not given	184 µM
CCCS(=O)(=O)Nc1ccc(F)c(C(=O)c2c[nH]c3ncc(-c4ccc(Cl)cc4)cc23)c1F	MEF	cell growth or viability, ATP luminescence	72 h	25 µM
Cc1ccc(C#Cc2cccc(-c3nn(-c4nc(C(=O)O)cs4)c(C4CC4C4CC4)c3Cc3ccc(S(N)(=O)=O)c(F)c3)c2)s1 (stereo not drawn)	MIA PaCa-2	cell growth or viability	48 h	5.26 µM
O=C1Nc2ccccc2C1n1nc(-c2c(O)c3ccccc3oc2=O)cc1-c1ccc(Br)cc1 (stereo not drawn)	A-375	cell growth or viability, SRB	72 h	8.45 µM
CC(C)C[C@H]1NC(=O)[C@H](CC(=O)O)NC(=O)CNC(=O)[C@H](CCCNC(=N)N)NC(=O)[C@H](C)NC1=O	WM-115	WM-115 cell adhesion, inhibitor	1 h, added: immobilized CagL^F86A	2.39 µM
CC1(C)CCCC(C)(C2CCC3(C)C2C(O)CC2C4(C)CCC(O)C(C)(C)C4C(OC(=O)NC4CCCCC4)CC23C)O1 (stereo not drawn)	Hep3B	HRE reporter gene, inhibitor	24 h, hypoxia	1.08 µM
NS(=O)(=O)c1ccc(NC(=O)CSc2nnc(-c3n[nH]c(=O)c4ccccc34)o2)cc1	WI-38	cell growth or viability, MTT	48 h	32.9 µM
CC[n+]1c(/C=C/C=C2/N(C)c3ccccc3C2(C)C)sc2ccccc21	hiPSC hepatic differentiation phase I	cell viability, CCK-8	48 h	0.26 ± 0.01 µM
CC(=O)O[C@H]1C(=O)[C@@]2(C)[C@H]([C@H](OC(=O)c3ccccc3)[C@]3(O)C[C@H](OC(=O)[C@H](O)[C@@H](NC(=O)c4ccccc4)c4ccccc4)C(C)=C1C3(C)C)[C@]1(OC(C)=O)CO[C@@H]1C[C@@H]2O	HeLa transfected with βIII-tubulin	cell growth, SRB		0.0092 ± 0.0002 µM
CC(C=NN=C(N)[S-])=NN=C(N)[S-].N.N.O=[N+]([O-])[O-].[Co+3]	A549	cell viability, MTT	24 h then 48 h recovery, normoxia	~16.9 µM
CCN1C(=O)C(n2nc(-c3c(O)c4ccccc4oc3=O)cc2-c2ccc(F)cc2)c2ccccc21 (stereo not drawn)	A-375	cell growth or viability, SRB	72 h	79.5 µM
O=c1[nH]c2ccccc2nc1/C=C/c1ccc(C(F)(F)F)cc1	HeLa 229	cell growth or viability, MTT	72 h	> 50 µM
COC(=O)c1c(-c2cccc([N+](=O)[O-])c2)c2n(c1C(=O)OC)CCn1cccc1-2	MDA-MB-231	cell growth or viability, MTT	48 h	43.7 µM
CC1(C)Cc2c(-c3ccccc3)c(-c3ccc(Cl)cc3)c(CC(=O)O)n2C1	Apc10.1 cells overexpressing Has2	cell proliferation, MTS		86 ± 7.2 µM
CC(=O)O[C@H]1C(=O)[C@@]2(C)[C@H]([C@H](OC(=O)c3ccccc3)[C@]3(O)C[C@H](OC(=O)[C@H](O)[C@@H](NC(=O)c4ccccc4)c4ccccc4)C(C)=C1C3(C)C)[C@]1(OC(C)=O)CO[C@@H]1C[C@@H]2O	C26, HepG2, MCF7	cytotoxicity, MTT	range over three cell lines	2.85 to 5.75 µM
CCN(CC)CCCC(C)Nc1ccnc2cc(Cl)ccc12 (stereo not drawn)	KB	cell growth or viability, resazurin	72 h	110 µM

SMILES	cell line	test	conditions	IC50
CC1(C)C=Cc2c(O)cc(/C=C/c3ccc(O)cc3)cc2O1	HL-60	reactive oxygen species, inhibitor, fluorescence		1.3 µg/mL
Clc1ccc(C2(c3ccc(-c4cn[nH]c4)cc3)CCNCC2)cc1	Raji shCTL	intracellular flow cytometry, measured: TRAF1	24 h, extrapolated, not maximally reduced	1.4 µM
Nn1c(SCC(=O)Nc2ccc([N+](=O)[O-])cc2)nnc1-c1ccc(NC(=O)c2cccnc2)cc1	RAW264.7	NO release, inhibitor, Griess	LPS-stimulated	1.92 µM
CC[N+](CC)(CC)CC(=O)Nc1ccc(/N=N/c2ccc(NC(=O)c3ccccc3)cc2)cc1	HEK293 expressing Sh-IR	potassium current, blocker, inside-out patch clamp	500 nm light, trans-enriched	1.3 µM
CCNC(=O)Nc1ccc(S(=O)(=O)Oc2cnccc2C)cc1	MOLM-13	cell growth or viability, MTT	48 h	3 µM
O=C1Nc2ccc(Cl)cc2C1n1nc(-c2c(O)c3ccccc3oc2=O)cc1-c1ccc(Cl)cc1 (stereo not drawn)	A-375	cell growth or viability, SRB	72 h	5.43 µM
COc1cc(OC)c(Cl)c(NC(=O)N(C)c2cc(Nc3ccc(N4CCN(CC(=O)N[C@H](C(=O)N5C[C@H](O)C[C@H]5C(=O)N[C@@H](C)c5ccc(-c6scnc6C)cc5)C(C)(C)C)CC4)cc3)ncn2)c1Cl	SNU1079 (no FGFR activation)	cell proliferation, CellTiter-Glo	3 d	> 10 µM
CCN1C(=O)C(n2nc(-c3c(O)c4ccccc4oc3=O)cc2-c2ccc(Cl)cc2)c2cc(Br)ccc21 (stereo not drawn)	A-375	cell growth or viability, SRB	72 h	5.44 µM
CC(=O)c1ccc(NC(=O)CSc2nnc(-c3ccc(NC(=O)c4cccnc4)cc3)n2N)cc1	RAW264.7	NO release, inhibitor, Griess	LPS-stimulated	1.22 µM
CCCNC(=O)Nc1ccc(S(=O)(=O)Oc2cccnc2C)cc1	MOLM-13	cell growth or viability, MTT	48 h	13 µM
O=C(CSc1nnc(-c2ccc(NC(=O)c3cccnc3)cc2)o1)Nc1ccc([N+](=O)[O-])cc1	RAW264.7	TNF-α release, inhibitor, ELISA	LPS-stimulated	2.76 µM
CN1CCN(c2nc3ccccc3nc2/C=C/c2ccccc2F)CC1	HeLa 229	cell growth or viability, MTT	72 h	12.4 µM
Cc1ccc(C=Nn2c(-c3ccc(NC(=O)c4cccnc4)cc3)n[nH]c2=S)cc1	RAW264.7	reactive oxygen species, inhibitor, fluorescence	LPS-stimulated	0.49 µM
CCCCCC(O)CCCO (stereo not drawn)	SH-SY5Y	cell growth or viability, SRB	24 h	> 1000 µM
Cc1ccc(NC(=O)CSc2nnc(-c3ccc(NC(=O)c4cccnc4)cc3)n2N)cc1	RAW264.7	IL-6 release, inhibitor, ELISA	LPS-stimulated	11.1 µM
O=c1[nH]c2ccccc2nc1/C=C/c1ccco1	HeLa 229	cell growth or viability, MTT	72 h	> 50 µM
Nn1c(SCC(=O)Nc2cccc(Br)c2)nnc1-c1ccc(NC(=O)c2cccnc2)cc1	RAW264.7	IL-6 release, inhibitor, ELISA	LPS-stimulated	5.63 µM
CCCCCCCCCCCCCCCCCC(=O)O[C@H](COC(=O)Cc1c(C)n(C(=O)c2ccc(Cl)cc2)c2ccc(OC)cc12)COP(=O)([O-])OCC[N+](C)(C)C	MCF-10A	cell growth or viability, SRB	72 h	305 µM
NCCN.O=C1[O][Pt]2([O]C(=O)C13CCC3)[O]C(=O)C1(CCC1)C(=O)[O]2	SW480	cell viability, MTT	96 h	> 640 µM
COc1cccc(CCc2ccc(O)cc2)c1	HL-60	reactive oxygen species, inhibitor, fluorescence		0.027 µg/mL
O=C(CCOCCOc1c2cccc1Cc1cccc(c1O)Cc1cccc(c1OCCOCCC(=O)Nc1ccc(-n3nc(-c4ccccc4O)nc3-c3ccccc3O)cc1)Cc1cccc(c1O)C2)Nc1ccc(-n2nc(-c3ccccc3O)nc2-c2ccccc2O)cc1	HepaRG	cell viability, MTT	72 h, added: Fe(III) 20 µM	125 ± 5 µM

A few entries again:
SMILES	cell line	test	conditions	IC50
O=c1[nH]c2ccccc2nc1/C=C/c1ccc(C(F)(F)F)cc1	HeLa 229	cell growth or viability, MTT	72 h	> 50 µM
COC(=O)c1c(-c2cccc([N+](=O)[O-])c2)c2n(c1C(=O)OC)CCn1cccc1-2	MDA-MB-231	cell growth or viability, MTT	48 h	43.7 µM
CC1(C)Cc2c(-c3ccccc3)c(-c3ccc(Cl)cc3)c(CC(=O)O)n2C1	Apc10.1 cells overexpressing Has2	cell proliferation, MTS		86 ± 7.2 µM
CC(=O)O[C@H]1C(=O)[C@@]2(C)[C@H]([C@H](OC(=O)c3ccccc3)[C@]3(O)C[C@H](OC(=O)[C@H](O)[C@@H](NC(=O)c4ccccc4)c4ccccc4)C(C)=C1C3(C)C)[C@]1(OC(C)=O)CO[C@@H]1C[C@@H]2O	C26, HepG2, MCF7	cytotoxicity, MTT	range over three cell lines	2.85 to 5.75 µM
CCN(CC)CCCC(C)Nc1ccnc2cc(Cl)ccc12 (stereo not drawn)	KB	cell growth or viability, resazurin	72 h	110 µM
CC1(C)C=Cc2c(O)cc(/C=C/c3ccc(O)cc3)cc2O1	HL-60	reactive oxygen species, inhibitor, fluorescence		1.3 µg/mL
